Published values collected from several papers.
Every numbered part comes from another study and shows a few of its results, in no order.
UniProt P22455, sequence (whole entry, looked up): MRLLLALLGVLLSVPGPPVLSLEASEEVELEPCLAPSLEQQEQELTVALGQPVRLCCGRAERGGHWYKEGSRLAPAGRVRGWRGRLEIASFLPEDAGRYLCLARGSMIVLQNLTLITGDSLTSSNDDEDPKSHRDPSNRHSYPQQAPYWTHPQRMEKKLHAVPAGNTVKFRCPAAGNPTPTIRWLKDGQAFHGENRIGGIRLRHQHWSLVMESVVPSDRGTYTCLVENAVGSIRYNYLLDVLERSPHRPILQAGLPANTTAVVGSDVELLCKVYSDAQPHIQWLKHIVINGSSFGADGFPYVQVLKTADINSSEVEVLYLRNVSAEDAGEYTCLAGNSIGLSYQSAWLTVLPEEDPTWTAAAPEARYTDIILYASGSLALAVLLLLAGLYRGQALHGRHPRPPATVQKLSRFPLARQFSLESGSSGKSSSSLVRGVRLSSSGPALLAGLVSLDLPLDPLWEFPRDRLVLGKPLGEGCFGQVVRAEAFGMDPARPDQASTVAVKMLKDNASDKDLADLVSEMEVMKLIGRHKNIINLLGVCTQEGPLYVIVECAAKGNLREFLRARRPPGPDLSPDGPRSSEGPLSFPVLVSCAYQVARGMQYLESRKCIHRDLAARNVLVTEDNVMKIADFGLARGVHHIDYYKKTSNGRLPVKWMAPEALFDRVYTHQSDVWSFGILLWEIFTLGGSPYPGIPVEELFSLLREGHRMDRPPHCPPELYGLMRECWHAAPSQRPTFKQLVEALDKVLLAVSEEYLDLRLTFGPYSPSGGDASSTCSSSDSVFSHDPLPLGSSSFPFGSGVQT

Series 1
Target: Cellular tumor antigen p53, full length (TP53, Homo sapiens, UniProt P04637, residues 1-393)
Technique: protein-binding microarray
Form: hairpin DNA
Matrix: in vitro
Tested at: not given
Notes: whole hairpin DNA, median over replicate spots
Relative to: not given
Reading: higher = stronger binding
| Strand | median fluorescence |
| --- | --- |
| CCACACGCGGTGGCATGCCTTCCTAGGCATGCCACCGCGTGTGGACACTC (5mC at 8) | 6920 a.u. |
| CCACTCGTGGTGGCATGCCTTCCTAGGCATGCCACCACGAGTGGACACTC | 6680 a.u. |
| CCACCGGTGGTGGCATGCCTTCCTAGGCATGCCACCACCGGTGGACACTC (5mC at 5) | 7280 a.u. |
| CCACACGTGGTGGCATGCCTTCCTAGGCATGCCACCACGTGTGGACACTC (5mC at 32) | 6610 a.u. |
| CCACATGTGGTGGCATGCCTTCCTAGGCATGCCACCACATGTGGACACTC | 8670 a.u. |
| CCACACGTGCTGGCATGCCTTCCTAGGCATGCCAGCACGTGTGGACACTC (5mC at 10) | 6940 a.u. |
| CCAAACGTGGTGGCATGCCTTCCTAGGCATGCCACCACGTTTGGACACTC | 8660 a.u. |
| CCACACGTGGTGCCATGCCTTCCTAGGCATGGCACCACGTGTGGACACTC (5mC at 13) | 4440 a.u. |

Series 2
Target: Hepatocyte nuclear factor 3-alpha (Foxa1, Mus musculus, UniProt P35582, residues 1-468, full length assumed)
UniProt P35582, sequence (whole entry, looked up): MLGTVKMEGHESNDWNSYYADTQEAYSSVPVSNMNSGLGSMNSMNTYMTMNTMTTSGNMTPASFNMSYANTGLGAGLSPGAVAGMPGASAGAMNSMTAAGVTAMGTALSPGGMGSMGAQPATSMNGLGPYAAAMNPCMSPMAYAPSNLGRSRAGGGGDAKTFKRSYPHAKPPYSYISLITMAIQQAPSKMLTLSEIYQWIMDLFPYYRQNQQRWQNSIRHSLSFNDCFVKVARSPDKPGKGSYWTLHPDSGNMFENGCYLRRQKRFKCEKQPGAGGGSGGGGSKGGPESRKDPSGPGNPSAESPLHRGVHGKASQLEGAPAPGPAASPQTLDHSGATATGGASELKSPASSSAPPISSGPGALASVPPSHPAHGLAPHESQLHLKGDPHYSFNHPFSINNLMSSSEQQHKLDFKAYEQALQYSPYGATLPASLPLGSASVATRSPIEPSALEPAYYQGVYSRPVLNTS
Technique: EMSA with sequencing
Form: double-stranded DNA, one strand shown
Matrix: in vitro
Tested at: 10 and 20 nM
Notes: whole designed probe, mean of two concentrations, ends assumed
Relative to: negative control set to 0
Reading: higher = stronger binding
All sequences stand within: GTGAGCGGTGCCCATTGATGGGGAAC … TTTCACTGGGATCGTGGGGAC
| Strand | normalised bound fraction |
| --- | --- |
| ATCTTCCCCCTCTTCCTTGCCCCACCAGCTCACCTTCCCGGGTATCTGCAAATAAGTATTTATTTTCAAGCCGGCATTCGTTAACCCTCTTCACGCGCATACTGCCAAAGTAAACAGATCTAACATGGTCCTTTGGCGACGCCAGGCTCCGGGAGAGCAAAGCACCGTGTCAGGGCCATGATCCGGGGTGGCC | 0.449 ratio |
| ATGTGCTAAAAATACAAGACTTGCTTACGCAGAGAGCCGGGAGCTATGTTCCAGTGAGGGTGGAAACAAAAGCCTCAGTATAAGACTGTCAGGTGTTTACACTTGCTCATGTGGCAAAGGGTGTGGTACACGAGGTTGCTGGACTCCACATGCTGAGGCTCAAAGTAGAAATCACTGATCTTATGTCACATAT | 0.266 ratio |
| CTATTGTCAGATATAACCAGAAAAAAATAGAATTTTAAGTGAGCAGGATAACTTAGTTAAACTAACCAAACATAGTGTTAGCTGTTAGAGAAATGTAAACATGGAAATAGGCAAACAGGGAAGTGTGTGGAGTTTCTGTTTCCTTTTCAAAATATCTGTTTGAGCTGGGGTTGAGAGAGAACACTAGGCTTCA | 0.433 ratio |
| CTGCAGATCTGCAAAAAAAGGGAGAAATCCGGCACTGGCTGCTCCACCGGGCCGGCTGCAAAGTGCGCGAACCGCGCCGTTTGCAATCCGTTTATTTGCATTATGCCCCATGAATCATTGTTTACCGGAGAATTGCAGCAGGGTTTGAATAGCCCGGCTTAAGAAAACACACACACACGCGCGCGCACACACA | 0.43 ratio |
| TCGGCCAGCCTGGCTTCTGCGCCCCGCCAGGAGGTCGCGGAGCGGAGCGCGGCCAGGAAGTGAGCTGAGAGTGACAGCTCCCCCCACGCGAGAATAAACAAACATCCACACAATGACTCATTCCTGGCTCTTCTTTCTTTCGGGAGGAGGGGAGAAAGGAGCGGGAGGGCGGGCGGGCAGGGGAGAGGCAGGC | 0.363 ratio |

Series 3
Target: PABPC1L2, full length, GST fusion (mouse, UniProt A0ABA7IW68)
Technique: RNAcompete
Form: RNA
Matrix: in vitro
Tested at: 20 nM
Notes: 7-mer, probes averaged, single round
Relative to: mean of 7-mers
Reading: higher = stronger binding
Target sequence (chain): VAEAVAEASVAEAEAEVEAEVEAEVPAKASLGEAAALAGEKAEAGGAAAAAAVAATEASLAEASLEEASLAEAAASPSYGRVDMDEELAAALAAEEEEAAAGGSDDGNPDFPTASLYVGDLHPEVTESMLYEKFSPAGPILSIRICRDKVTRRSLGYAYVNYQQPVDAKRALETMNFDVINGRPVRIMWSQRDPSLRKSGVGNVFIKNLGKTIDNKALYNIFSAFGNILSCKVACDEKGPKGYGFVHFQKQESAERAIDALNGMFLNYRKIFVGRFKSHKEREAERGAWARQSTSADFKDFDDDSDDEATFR
| Strand | 7-mer Z-score |
| --- | --- |
| AAGAUCC | 0.282 |
| CCACGCA | -0.0844 |
| CGCCGUG | -0.378 |
| GGGCGAU | 0.35 |
| UACGACG | -0.155 |
| GGACAGC | 0.0696 |
| GACGCCC | -0.3 |
| UACCGAG | -0.202 |

Single results of other studies
| SMILES | target | test | setting | quantity | value |
| --- | --- | --- | --- | --- | --- |
| CCC(=O)N[C@H]1CC[C@@H](C(=O)N(C)c2ccc(-c3nc4ccccc4o3)cc2)C1 | Fibroblast growth factor receptor 4 (FGFR4, Homo sapiens, UniProt P22455) | cell-free assay, competition with immobilised ligand | 1 µM | remaining binding | 100% |
